Experimental data gathered from unrelated publications.
A part holds a random share of what one study measured.

Study 1 — method: protein-binding microarray; form: double-stranded DNA, one strand shown; medium: in vitro; tested at: 2540 nM top; setting: 60-bp whole probe; with: salmon DNA 0.4 mg/ml; baseline: random background probes; reading: higher = stronger binding; constant ends, left off below: GCCTAGCAC … GTCTTGATTCGCTTGACGCTGCTG
Target: Interferon regulatory factor 3, full length, phosphomimetic (IRF3, Homo sapiens, UniProt Q14653, residues 1-427, S386D/S396D/S398D/S402D/T404D/S405D)
Residues (chain): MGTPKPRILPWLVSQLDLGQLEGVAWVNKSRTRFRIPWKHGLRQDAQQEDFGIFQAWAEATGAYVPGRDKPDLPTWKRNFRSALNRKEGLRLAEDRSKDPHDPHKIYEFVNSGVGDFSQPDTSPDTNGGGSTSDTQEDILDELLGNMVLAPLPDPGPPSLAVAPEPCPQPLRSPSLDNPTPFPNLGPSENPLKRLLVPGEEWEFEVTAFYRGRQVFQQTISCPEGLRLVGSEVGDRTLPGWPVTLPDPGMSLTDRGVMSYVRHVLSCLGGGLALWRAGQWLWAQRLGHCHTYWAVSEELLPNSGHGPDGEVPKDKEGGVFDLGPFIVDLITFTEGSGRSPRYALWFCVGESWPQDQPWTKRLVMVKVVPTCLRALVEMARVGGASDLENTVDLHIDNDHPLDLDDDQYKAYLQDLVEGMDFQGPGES
`GAATGTCTTCCCCTCTCATTGTGCTAG` — result for “fitted relative affinity”: 0.556 z-score.
For `GACGATCTCAATATCGAGACGTGCTAG`, “fitted relative affinity” read 0.769 z-score.
For `TTCCCTTTCTCAACCTCCAGGTGCTAG`, “fitted relative affinity” read 8.02 z-score.
`GACGGACTGGTACTGCTGACGTGCTAG` — result for “fitted relative affinity”: -0.548 z-score.
`ACCACTTTCCATTTCTGTTTGTGCTAG` — result for “fitted relative affinity”: 7.53 z-score.
`GACGGTATTGGTCTCGGGACGTGCTAG`: “fitted relative affinity” 0.748 z-score.
For `TGATCTCTGGTCTTTGTCAGGTGCTAG`, “fitted relative affinity” read 0.141 z-score.
Under “fitted relative affinity”, `CTAAAAATCCCATTAAATTTGTGCTAG` is recorded as 1.22 z-score.
`TCAACTCTAATCTCACTCACTGTGCTA` — result for “fitted relative affinity”: 0.147 z-score.
For `TTAGGACTGGGGTATCGGTTGGTGCTA`, “fitted relative affinity” read -0.459 z-score.
Under “fitted relative affinity”, `TCTACTGTCTGTTTCCTCTTGTGCTAG` is recorded as 2.11 z-score.

Study 2 — method: protein-binding microarray; form: double-stranded DNA, one strand shown; medium: in vitro; tested at: 0.8 µM; setting: whole 60-bp probe, no competitor; reading: higher = stronger binding; constant ends, left off below: … GTCTTGATTCGCTTGACGCTGCTG
Target: Centromere-binding protein 1, full length, N-terminal tag (CBF1, Saccharomyces cerevisiae, UniProt P17106, residues 1-351)
Sequence of UniProt P17106 (whole entry, looked up): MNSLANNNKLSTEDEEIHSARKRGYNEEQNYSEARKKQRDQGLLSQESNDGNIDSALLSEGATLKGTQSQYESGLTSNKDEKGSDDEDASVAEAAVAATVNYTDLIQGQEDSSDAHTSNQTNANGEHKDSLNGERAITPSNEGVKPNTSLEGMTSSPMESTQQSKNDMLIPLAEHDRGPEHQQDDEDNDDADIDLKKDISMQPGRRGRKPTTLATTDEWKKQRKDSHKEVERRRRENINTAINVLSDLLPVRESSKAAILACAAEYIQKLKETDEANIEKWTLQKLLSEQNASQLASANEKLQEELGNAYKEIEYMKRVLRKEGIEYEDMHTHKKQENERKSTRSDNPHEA
`GAAAAAACAACCAAGCACGAGAAAGGGAGAGAGTAG` gave a fluorescence intensity of 575 a.u.
`CTAGTTTGCATTTTGCACGTTTCCCTTTCCATGTTC` has a fluorescence intensity of 623 a.u.
`GAAGCACCCCGTAGTCACGTTCGCCTTCGCAGCTAG` has a fluorescence intensity of 1580 a.u.
With `CTATGTTATCAGTGTCTGATGCAGAGGTATTACTTC` the fluorescence intensity was 521 a.u.
`GAACAATCAACCGTACACGCGGTACTTATCCAGTAG` has a fluorescence intensity of 559 a.u.
`CTAGGAAACGGTTCCTTCGTGACAATTCTAGAATTC` gave a fluorescence intensity of 535 a.u.
For `GAAGAGATTTCTCATCATCACCTACATATTCTCTAG`, the fluorescence intensity was 542 a.u.
The fluorescence intensity of `TGTACGAAGCTATACGTGATGACTATAGTAGTTAGG` is reported as 534 a.u.
`CTATGCTCAAATTAGCATGTGAAAAAAAGATAATTC` gave a fluorescence intensity of 697 a.u.
`GAATAGGCTCTAAATTGCGTGCCTGAAATCTGCTAG` has a fluorescence intensity of 512 a.u.
For `GAAACTATTCCTCCCCACTCACGTCTATAGTCCTAG`, the fluorescence intensity was 490 a.u.
`GAAATTGACGGTATACCCGTGTTTTTCTCATTATAG` gave a fluorescence intensity of 524 a.u.

Study 3 — method: protein binding microarray; form: double-stranded DNA, one strand shown; medium: in vitro; tested at: not given; baseline: not given; reading: higher = stronger binding
Target: Histone acetyltransferase KAT6A, both winged helices, GST fusion (KAT6A, Homo sapiens, UniProt Q92794, residues 1-181)
Setting: 8-mer, flanks averaged, mean of 2 arrays, mostly near background
Target sequence (chain): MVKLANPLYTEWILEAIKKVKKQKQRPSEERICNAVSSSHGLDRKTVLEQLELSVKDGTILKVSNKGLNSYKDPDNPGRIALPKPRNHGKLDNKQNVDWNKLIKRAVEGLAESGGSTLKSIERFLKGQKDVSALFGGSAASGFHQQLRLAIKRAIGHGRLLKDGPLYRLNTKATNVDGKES
`CGGTAACG` gave an E-score of 0.257.
`ACCCCATA` gave an E-score of -0.127.
`GTATTCAA` has an E-score of -0.00247.
`CACCGGGG` has an E-score of 0.102.
For `CGCACCTC`, the E-score was 0.0262.
For `AGGGTATA`, the E-score was -0.136.
With `GCCGAAAC` the E-score was 0.134.

Single results of other studies
`PhoQ, residues 284 288 289 292 302 303 SQSLSM` has a fold induction of 8.44 (PhoP, residues 12 14 15 18 19 QYCSL (Escherichia coli, UniProt P23836); Sort-seq, measured: YFP reporter; E. coli; PhoQ-PhoP variant library, with: 10 µM Mg2+; baseline: high Mg2+ state, higher = stronger signaling).

Excerpt of the above (study 2):
With `CTATGTTATCAGTGTCTGATGCAGAGGTATTACTTC` the fluorescence intensity was 521 a.u.
`GAACAATCAACCGTACACGCGGTACTTATCCAGTAG` has a fluorescence intensity of 559 a.u.
`CTAGGAAACGGTTCCTTCGTGACAATTCTAGAATTC` gave a fluorescence intensity of 535 a.u.
For `GAAGAGATTTCTCATCATCACCTACATATTCTCTAG`, the fluorescence intensity was 542 a.u.
The fluorescence intensity of `TGTACGAAGCTATACGTGATGACTATAGTAGTTAGG` is reported as 534 a.u.
